Experimental data pooled from the literature.
Protocols differ between the studies behind these lines. “And” joins repeats or separate records; there may be more than shown. ± gives the spread as reported. Converted amounts (≈) assume the structure as drawn.

CN1C(=O)CN=C(c2ccccc2)c2cc(Cl)ccc21 — IC50 (GABAA receptor benzodiazepine site, rat brain; radioligand binding; together with: flunitrazepam): 0.019 µM
CN1C(=O)CN=C(c2ccccc2)c2cc(Cl)ccc21 — IC50 (rat central GABAA receptor, flunitrazepam site; radioligand binding): 0.019 µM
COc1cc(CCC[P+](c2ccccc2)(c2ccccc2)c2ccccc2)c(OC)c2c1OCO2.[I-] — GI50 (HT-29; SRB): -6.09 log M
Clc1ccc(-c2cc(Cl)ccc2Cl)cc1 — IC50 (gap junction, rat; gap junctional communication, scrape loading dye transfer; WB-F344 rat liver epithelial; 1 h): 21 µM
CC(C)(C)OC(=O)CCC1(C(F)(F)F)N=C(c2ccc(O)cc2)C(=O)O1 (centres unmarked) — viability reduction (Schistosoma mansoni; microscopic viability scoring; newly transformed schistosomula; 10 µM, 72 h, prescreen): 20%
COc1c(C)c2c(c(O)c1C/C=C(\C)CCC(=O)O)C(=O)OC2 — IC50 (SF-268; cell proliferation; brain cancer): 0.575 µM
CCC1(c2ccc(N)cc2)CCC(=O)NC1=O (centres unmarked) — IC50 (7702 normal human cells; cell growth, CCK-8; 48 h): > 50 µM
O=c1c2cc(Cl)c(CO)cc2[nH]c(=S)n1Cc1cccnc1 — MIC90 (Mycobacterium tuberculosis; H37Rv): 3.6 µM (≈ 1.2 µg/mL)
CC[C@H](C)[C@H](NC(=O)[C@H](C)NC(=O)[C@H](CCCCN)NC(=O)[C@H](CC(C)C)NC(=O)[C@H](C)NC(=O)[C@@H](NC(=O)[C@H](Cc1c[nH]cn1)NC(=O)[C@H](CC(C)C)NC(=O)[C@@H](NC(=O)[C@@H](NC(=O)[C@H](CCCCN)NC(=O)[C@H](C)NC(=O)[C@H](C)NC(=O)[C@H](CO)NC(=O)[C@H](CCCCN)NC(=O)[C@H](Cc1ccccc1)NC(=O)[C@@H](NC(=O)[C@H](CCCCN)NC(=O)[C@H](CC(C)C)NC(=O)[C@H](Cc1ccccc1)NC(=O)[C@H](CO)NC(=O)[C@H](CCCCN)NC(=O)[C@H](Cc1c[nH]c2ccccc12)NC(=O)[C@H](CCCCN)NC(C)=O)[C@@H](C)O)[C@@H](C)O)C(C)C)[C@@H](C)O)C(=O)N[C@@H](CO)C(=O)N[C@@H](CO)C(N)=O — MBC90 (Enterobacter aerogenes; 40 strains): > 64 µg/mL
CC(C)N1CCC(NC2CCN(c3cccc(-c4cc5cc(F)ccc5[nH]4)c3)CC2)CC1 — GI50 (RPMI-8226): 1.84 µM
COc1ccc(-c2ccc3c(N)c(C(=O)N4CCOCC4)sc3n2)cc1OC — IC50 (Mycobacterium tuberculosis; growth inhibition; H37Rv LepB under-expressing): 24 ± 10 µM
Oc1ccc(-c2cc(Cl)ccc2Cl)c(Cl)c1 — IC25 (gap junction, rat; gap junctional communication, scrape loading dye transfer; WB-F344 rat liver epithelial; 1 h): 7 µM
COc1ccc(-c2cc(C(F)(F)F)c3c(N)c(C(=O)N4CCC4)sc3n2)cc1 — IC50 (Mycobacterium tuberculosis; growth inhibition; H37Rv LepB under-expressing): > 100 µM
C[C@]12CC[C@H]3[C@@H](CC=C4CC(O)CC[C@@]43CO)[C@@H]1CCC2O (some centres unmarked) — anti-inflammatory marker level (refers to: adiponectin, IL-10; rat, GAN diet-induced MASH, white adipose tissue; dose not given; relative to: GAN diet plus vehicle): increased
COc1ccc(-c2ccc3c(N)c(C(=O)Nc4cccc(C)c4C)sc3n2)cc1 — IC50 (Mycobacterium tuberculosis; growth inhibition; H37Rv LepB under-expressing): > 100 µM
C[C@@H]1C[C@@]2(N=CCS2)[C@]2(O)O[C@@H]3C[C@@]4(C=O)[C@@H](CC[C@@H]5[C@@H]4CC[C@]4(C)[C@@H](C6=CC(=O)OC6)CC[C@]54O)C[C@H]3O[C@@H]2O1 — viability effect (Schistosoma mansoni; microscopic viability score; adult worms; 10 µM, 24 h): 92%
CCCCCn1cc(C(=O)C2C(C)(C)C2(C)C)c2ccccc21 — ED50 (antinociception, tail withdrawal warm water; ICR mouse male; intravenous): 2.6 µmol/kg
C[C@@H](O[C@H]1OCCN(Cc2n[nH]c(=O)[nH]2)[C@H]1c1ccc(F)cc1)c1cc(C(F)(F)F)cc(C(F)(F)F)c1 — IC50 (Human immunodeficiency virus 1; viral replication; PBMC, subtype A isolate from Uganda, R5, NSI): 5.65 µM
COC(=O)c1ccc(C(=O)OC)nc1 — viability reduction (Schistosoma mansoni; microscopic viability scoring; newly transformed schistosomula; 10 µM, 72 h, prescreen): 23.3%
COc1ccc(-c2cc(C(F)(F)F)c3c(N)c(C(=O)NC45CC6CC(CC(C6)C4)C5)sc3n2)cc1 — selectivity index (Mycobacterium tuberculosis; H37Rv wild type; relative to: HepG2 IC50 over M. tuberculosis IC90): > 91
CCCCC1(CCCC)CN(c2ccccc2)c2cc(SC)c(OCC(=O)N[C@@H](C(=O)NCC(=O)O)c3ccccc3)cc2S(=O)(=O)C1 — serum HDL-C (refers to: HDL cholesterol; human, serum; 5 mg once daily, day 13): 48.3 mg/dL
COc1ccc(-n2nc(C(C)=O)s/c2=N\N=C(/C)c2ccc(NC(C)=O)cc2)cc1 — toxicity (WI-38; 0.312 µM): 96.3%
OC(Cn1cncn1)(Cn1cncn1)c1ccc(F)cc1F — OD600 (Saccharomyces cerevisiae; cell growth; Pdr5 deleted, empty vector; 2^-2.737 µg/mL): 1.03 and 1.05 and 1.04
FC(F)(F)c1ccc2c(c1)[C@@H]1CNC[C@H]2C1 — ethanol intake (two-bottle choice; Wistar rat, intermittent 20% ethanol access; subcutaneous, 5 mg/kg, 6 h): 3 ± 0.2 g/kg
COc1c(CCC[P+](c2ccccc2)(c2ccccc2)c2ccccc2)cc2c(c1OC)OCO2.[I-] — GI50 (SF-539; SRB): -5.68 log M
CC[C@H](C)[C@@H]1NC(=O)[C@@H]2CCCN2C(=O)[C@H](CC(C)C)NC(=O)[C@H](CC(C)C)NC(=O)CNC(=O)[C@@H](NC(=O)[C@@H](NC(=O)[C@H](CC(=O)O)NC(=O)CNC(=O)[C@@H](NC(=O)[C@H](C)NC(=O)CNC(=O)[C@H](CCCCN)NC(=O)[C@H](CC(C)C)NC(=O)[C@H](CC(C)C)NC(=O)[C@H](CCCCN)NC(=O)CNC(=O)[C@@H](NC(=O)[C@@H](N)CC(C)C)C(C)C)C(C)C)C(C)C)CSSC[C@@H](C(=O)O)NC1=O — log2 fold change (RNA-seq, refers to: mt-Tg mRNA; mouse traumatic brain injury, frontal cortex and hippocampus; dose not given; relative to: TBI plus compound vs TBI): -6.44

Repeated from above:
COc1ccc(-c2ccc3c(N)c(C(=O)Nc4cccc(C)c4C)sc3n2)cc1 — IC50 (Mycobacterium tuberculosis; growth inhibition; H37Rv LepB under-expressing): > 100 µM
C[C@@H]1C[C@@]2(N=CCS2)[C@]2(O)O[C@@H]3C[C@@]4(C=O)[C@@H](CC[C@@H]5[C@@H]4CC[C@]4(C)[C@@H](C6=CC(=O)OC6)CC[C@]54O)C[C@H]3O[C@@H]2O1 — viability effect (Schistosoma mansoni; microscopic viability score; adult worms; 10 µM, 24 h): 92%
CCCCCn1cc(C(=O)C2C(C)(C)C2(C)C)c2ccccc21 — ED50 (antinociception, tail withdrawal warm water; ICR mouse male; intravenous): 2.6 µmol/kg
C[C@@H](O[C@H]1OCCN(Cc2n[nH]c(=O)[nH]2)[C@H]1c1ccc(F)cc1)c1cc(C(F)(F)F)cc(C(F)(F)F)c1 — IC50 (Human immunodeficiency virus 1; viral replication; PBMC, subtype A isolate from Uganda, R5, NSI): 5.65 µM
